Results from different studies.
Compare with care: the assays were run in different laboratories. “And” joins repeats or separate records; there may be more than shown. ± gives the spread as reported.
TDP1: Tyrosyl-DNA phosphodiesterase 1 (TDP1, Homo sapiens, UniProt Q9NUW8)
Gria1: Glutamate receptor 1 (Gria1, Rattus norvegicus, UniProt P19490)
CASP6: Caspase-6 (CASP6, Homo sapiens, UniProt P55212)
MAPK8: Mitogen-activated protein kinase 8 (MAPK8, Homo sapiens, UniProt P45983)
T1: dsDNA, duplex; chain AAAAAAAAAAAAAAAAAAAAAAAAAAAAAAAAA; chain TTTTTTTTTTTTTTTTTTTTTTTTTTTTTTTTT

Structure (SMILES)	target	assay	system	conditions	scale	measurement	value
O=C(O)c1ccc(Nc2c(-c3ccc(CON=Cc4cc(Cl)ccc4OCc4cccnc4)cc3)nc3cc(-c4ccccc4)ccn23)cc1	TDP1	enzyme activity, inhibitor	–	100 µM, unpurified compound	–	inhibition	15.1%
CCCCCC=CC=C1C(=O)C=CC1CC=CCCCC(=O)O (stereo not drawn)	Disks large-associated protein 5 (DLGAP5, Homo sapiens, UniProt Q15398)	competitive isoTOP-ABPP, item: DLG7 cysteine peptide	Ramos soluble proteome	100 µM, with: iodoacetamide probe	baseline: DMSO over compound-treated, higher = stronger cysteine blockade	isoTOP-ABPP competition ratio	1.5
Cc1cnc2nc1Nc1cccc(c1)COC/C=C/COCc1cc(ccc1OCCN1CCOCC1)N2	Epidermal growth factor receptor (EGFR, Homo sapiens, UniProt P00533)	binding	–	0.1 µM	–	remaining binding	77%
COc1ccc(OC)c(C2=Nn3c(nnc3-c3ccccc3)SC2)c1	Uncharacterized protein (Trypanosoma brucei brucei, UniProt Q386Q8)	inhibitor, coupled colorimetric	Trypanosoma brucei	–	–	Hill slope	0.64
C[C@H](N)C(=O)O	Lysozyme C (LYZ, Gallus gallus, UniProt P00698)	sedimentation equilibrium AUC	–	–	–	particle diameter	5.4 nm
O=C(O)c1ccc(Nc2c(-c3ccc(CON=CC4CCCCN4C(=O)OCc4ccccc4)cc3)nc3cc(-c4ccccc4)ccn23)cc1 (mixture of isomers)	TDP1	enzyme activity, inhibitor	–	100 µM, unpurified compound	–	inhibition	17.9%
CN(C)CCCSC(=S)N1CCN(C(=O)/C=C/c2coc3ccccc3c2=O)CC1	Nucleoprotein (N, Tomato spotted wilt virus, UniProt P25999)	immunoblot, item: N protein	–	concentration not given, 160 min, 25 °C, with: RNA	baseline: level at 0 min	relative protein level	0.654 and 0.746 and 0.69
O=C(O)Cc1cc2c(cc1C(=O)c1ccccc1I)OCO2	Gria1	whole-cell patch clamp	HEK-293T	concentration not given, with: glutamate	–	deactivation time constant	3.1 ± 0.1 ms
O=C(O)c1ccc(Nc2c(-c3ccc(CON=Cc4sccc4Cl)cc3)nc3cc(-c4ccccc4)ccn23)cc1	TDP1	enzyme activity, inhibitor	–	100 µM, unpurified compound	–	inhibition	38.8%
CCCCCCOc1ccc(C(=O)OCCN2CC=CCC2)cc1	Muscarinic acetylcholine receptor M5 (CHRM5, Homo sapiens, UniProt P08912)	–	membranes	100 µM, 15 h, no carbachol	baseline: control	basal binding	1.1 ± 0.03 fold
O=C(O)c1ccc(Nc2c(-c3ccc(CON=Cc4nc(-c5ccccc5)[nH]c4Cl)cc3)nc3cc(-c4ccccc4)ccn23)cc1	TDP1	enzyme activity, inhibitor	–	100 µM, unpurified compound	–	inhibition	25.6%
COC(=O)Cc1cc2c(cc1C(=O)c1ccccc1Br)OCO2	Gria1	glutamate-evoked current, whole-cell patch clamp	HEK-293T	concentration not given, pH 7.4, holding potential -60 mV, with: 10 mM glutamate	–	current amplitude	409 ± 35 pA
C=CC(=O)N1CCCC(n2c(=O)c3ncccc3n(Cc3ccc(Oc4ccccc4)cc3)c2=O)C1 (stereo not drawn)	Crk-like protein (Homo sapiens, UniProt P46109)	thermal proteome profiling	–	replicate 2	–	melting temperature	56.4 °C
C#CCOc1ccc(C=NOCc2ccc3nc(-c4ccccc4)c(Nc4ccc(C(=O)O)cc4)n3c2)cc1	TDP1	enzyme activity, inhibitor	–	100 µM, unpurified compound	–	inhibition	30.1%
CCC[C@H](NC(=O)[C@H](CC(=O)O)NC(C)=O)C(=O)N1[C@H](C(=O)N[C@@H](CC(=O)O)C(=O)COC(=O)c2c(C)cccc2C)C[C@@H]2CCCC[C@@H]21	CASP6	enzyme activity, inhibitor	–	–	–	kinact/KI	23800 M⁻¹ s⁻¹
Clc1ccc(Nc2nc(NC3CCCCC3)c3ccccc3n2)cc1	Beta-2 adrenergic receptor (ADRB2, Homo sapiens, UniProt P07550)	β-arrestin2 recruitment, PathHunter and GloSensor	–	–	baseline: GloSensor IC50 over PathHunter IC50	bias factor	> 50 fold
CSCC[C@@H]1NC(=O)[C@@H]2CCCN2C(=O)[C@H](C(C)C)NC(=O)[C@@H](NC(=S)Nc2ccc(CC3CN(CC(=O)O)CCN(CC(=O)O)CCN3CC(=O)O)cc2)CSSC[C@@H](C(=O)O)NC(=O)[C@H](C)NC(=O)[C@H](CCCNC(=N)N)NC(=O)[C@H](Cc2ccc(O)cc2)NC(=O)[C@H]([C@@H](C)O)NC1=O (stereo partly drawn)	Lymphocyte activation gene 3 protein (Lag3, Mus musculus, UniProt Q61790)	binding, SPR	immobilised recombinant mouse LAG-3	–	–	koff	0.00239 s⁻¹
CC(C)Oc1cc(Cl)ccc1CNc1cc(-c2ccccc2)nc2ncnn12	G-protein coupled receptor 3 (GPR3, Homo sapiens, UniProt P46089, I200W)	cAMP GloSensor	human cells	100 pM	higher is more cAMP	cAMP luminescence	41400 a.u. and 37100 a.u. and 53200 a.u. and 39300 a.u.

Structure (SMILES)	target	assay	system	conditions	scale	measurement	value
O=C(O)c1ccc(Nc2c(-c3ccccc3)nc3ccc(CON=Cc4cc(O)ccc4O)cn23)cc1	TDP1	enzyme activity, inhibitor	–	100 µM, unpurified compound	–	inhibition	61.2%
O=C1c2sc(-c3ccc(N4CCC(F)C4)nc3F)nc2CCN1c1cccnc1 (stereo not drawn)	TAR DNA-binding protein 43, aggregated (TARDBP, Homo sapiens, UniProt Q13148)	binding, surface plasmon resonance	brain-derived TDP-43 aggregates	75 nM	–	SPR response	1.32 RU
CCCCCC(O)/C=C/C=O (stereo not drawn)	Cleavage and polyadenylation specificity factor subunit 3 (CPSF3, Homo sapiens, UniProt Q9UKF6)	competitive isoTOP-ABPP	Ramos soluble proteome	100 µM, with: iodoacetamide probe	baseline: DMSO over compound-treated, higher = stronger cysteine blockade	isoTOP-ABPP competition ratio	1.7
COC(=O)[C@@]1(C)C=C(C(=O)Nc2cccc(C(=O)Nc3ccc(Nc4nccc(-c5cccnc5)n4)c(C)c3)c2)C(=O)CC1	MAPK8	SPR two-step binding model	–	reversible bond formation	–	ΔΔG bond formation contribution	-2.57 kcal/mol
CC(=O)N[C@@H](CC(=O)O)C(=O)N[C@@H](Cc1ccc2ccccc2c1)C(=O)N[C@@H](C)C(=O)N[C@@H](CC(=O)O)C(=O)COC(=O)c1c(C)cccc1C	CASP6	enzyme activity, inhibitor	–	–	–	kinact/KI	1600 M⁻¹ s⁻¹
Cc1ccc(S(=O)(=O)N2CC(NC(=O)c3ccccc3)C2=O)cc1 (stereo not drawn)	Rhomboid protease GlpG (glpG, Escherichia coli, UniProt P09391)	enzyme activity, inhibitor, gel-based chimeric protein substrate	–	–	–	IC50	inactive
CC(=O)N[C@@H](CC(=O)O)C(=O)N[C@@H](CCC(=O)O)C(=O)N[C@H](C(=O)N[C@@H](CC(=O)O)C(=O)COC(=O)c1c(C)cccc1C)C(C)C	CASP6	enzyme activity, inhibitor	–	–	–	kinact/KI	330000 M⁻¹ s⁻¹
COC(=O)Cc1cc2c(cc1C(=O)c1ccc(Cl)cc1Cl)OCO2	Gria1	glutamate-evoked current, whole-cell patch clamp	HEK-293T	concentration not given, weighted tau, 500 ms pulse, with: glutamate	–	desensitization time constant	1.8 ± 0.1 ms
NC(=O)c1cccc(CN(Cc2ccc(Cl)c(Cl)c2)C(=O)NC(CN2CCCCC2)c2ccccc2)c1 (stereo not drawn)	Kappa-type opioid receptor (OPRK1, Homo sapiens, UniProt P41145)	beta-arrestin recruitment	–	–	–	bias factor	0.15
CCCc1n(Cc2ccc(Br)cc2)c2c([n+]1Cc1ccc(Br)cc1)CCCC2	T1, dsDNA, duplex	competition with EtBr, competitor, EtBr displacement fluorescence	–	Na+ 50 mM, with: EtBr	–	binding	binds
O=C(O)c1ccc(Nc2c(-c3ccc(CON=Cc4cnc5ccccc5c4)cc3)nc3cc(-c4ccccc4)ccn23)cc1 (mixture of isomers)	TDP1	enzyme activity, inhibitor	–	100 µM, unpurified compound	–	inhibition	76.5%
CCCCCCCCCCCCC/C=C/C=O	AH receptor-interacting protein (Homo sapiens, UniProt O00170)	competitive isoTOP-ABPP	Ramos soluble proteome	100 µM, with: iodoacetamide probe	baseline: DMSO over compound-treated, higher = stronger cysteine blockade	isoTOP-ABPP competition ratio	1
CC(C)[C@@H]1NC(=O)[C@H](Cc2ccccc2)NC(=O)CSC[C@@H](C(N)=O)NC(=O)[C@H](CCC(=O)O)NC(=O)[C@H](CO)NC(=O)[C@H](Cc2c[nH]c3cccc(Cl)c23)NC(=O)[C@H](C2CCCCC2)NC(=O)[C@H](C(C)C)NC(=O)[C@H](Cc2ccc(O)cc2)NC(=O)[C@H](CC(=O)O)NC(=O)[C@H](Cc2c[nH]c3ccccc23)NC(=O)[C@H](Cc2ccc(N)nc2)NC(=O)[C@H](Cc2c[nH]c3ccc(Cl)cc23)NC(=O)[C@H](CCC(=O)O)NC1=O	Interleukin-1 receptor-like 2 (IL1RL2, Homo sapiens, UniProt Q9HB29)	reporter gene (SEAP), inhibitor, HEK-Blue IL-36R reporter	HEK-Blue IL-36R cells	3.7 µM, 6 h, with: IL-36β 30 ng/mL	–	remaining activity	93.8%
O=C(O)Cc1cc2c(cc1C(=O)c1cccc(Cl)c1)OCO2	Gria1	glutamate-evoked current, whole-cell patch clamp	HEK-293T	concentration not given, weighted tau, 1 ms pulse, with: glutamate	–	deactivation time constant	9.1 ± 0.4 ms
CC(/C=C/C(=O)NO)=C\[C@@H](C)C(=O)c1ccc(N(C)C)cc1	Histone deacetylase 8 (HDAC8, Homo sapiens, UniProt Q9BY41)	ITC	Tris-HCl buffer	concentration not given, 293 K	–	binding stoichiometry	0.9
CC(=O)N[C@H](CCc1ccccc1)C(=O)N[C@@H](CCC(=O)O)C(=O)N[C@@H](CCC(N)=O)C(=O)N[C@@H](CC(=O)O)C(=O)COC(=O)c1c(C)cccc1C	CASP6	enzyme activity, inhibitor	–	–	–	kinact/KI	1300 M⁻¹ s⁻¹
O=C(O)c1ccc(Nc2c(-c3ccc(CON=Cc4ccc(-n5cncn5)c(F)c4)cc3)nc3cc(-c4ccccc4)ccn23)cc1 (mixture of isomers)	TDP1	enzyme activity, inhibitor	–	100 µM, unpurified compound	–	inhibition	82.4%
C#CCOC(=O)[C@@]1(C)C=C(C(=O)OC(C)(C)C)C(=O)CC1	MAPK8	enzyme activity, D-SENSOR	–	1.646 µM, mean of replicates	–	normalized kinase activity	0.921
